Results pooled from the literature.
Compare with care: the assays were run in different laboratories. Numbers after ± are the reported error.

For `C[N+]1(CC(=O)OC2CCCCCCCCCCC2)CCCCC1`, the ED70 was 12.5 µM (PC-3; cell viability, CellTiter Blue; 96 h).
`COc1ccc([C@@H]2CC(=O)c3c(O)cc(O[C@@H]4O[C@H](CO[C@@H]5O[C@@H](C)[C@H](O)[C@@H](O)[C@H]5O)[C@@H](O)[C@H](O)[C@H]4O)cc3O2)cc1O` has a viability of 52.1% (A549; cell growth or viability, MTS; 100 µg/mL, 48 h).
`CO[C@H]1N(OC)c2ccccc2[C@@]12CN=C(Nc1cc(C(F)(F)F)cc(C(F)(F)F)c1)S2` (relative stereo): “sub-G1 phase cells” 19.7 ± 2.26% (HCT-116; PI flow cytometry; 40 µM, 24 h).
The intracellular ROS of `O=C(/C=C(O)/C=C/c1cccs1)/C=C/c1cccs1` is reported as 105 ± 8% (EA.hy926; DCFH-DA, normalised to SRB; 10 µM; baseline: untreated).
For `CC(C)C1=C(O)C(=O)C2=C(C1=O)[C@H](O)[C@@H](O)[C@H]1C(C)(C)CCC[C@]21C`, the GI50 was 25 ± 2 µM (NCI-H460/R P-gp overexpressing; MTT; 72 h).
With `CC(=O)N[C@H](C(=O)N[C@H](C(=O)N[C@@H](CCCNC(=N)N)C(=O)N1Cc2ccccc2C[C@H]1C(=O)N[C@@H](Cc1ccccc1)C(N)=O)C1CCCCC1)C(C)C` the cytokine level was 1120 ± 268 pg/mL (MBP-specific BC-3 T cells; Bio-Plex multiplex, item: RANTES; 200 µg/mL, 24 h, with: MBP87-99 antigen).
For `CCNc1cc2c(cc1C)C1(c3cc(C)c(NCC)cc3O2)c2ccccc2C(=O)N1N=Cc1c[c-]c(-c2ccccn2)cc1.Cc1c(C)c(-c2ccc(-c3ccccc3)cc2)[c-](C)c1C.[Cl-].[Ir+3]`, “NF-κB p65 protein level” read “no effect” (A549; flow cytometry; concentration not given, 24 h, with: N-acetylcysteine 10 mM; baseline: untreated).
For `Cc1nn(C)c(O)c1-c1nc2cc(Cl)c(Cl)cc2[nH]c1=O`, the apoptotic cells was roughly 40% (TF-1; annexin V flow cytometry; concentration not given, 72 h, treated at IC50).
For `COc1ccc(-c2cc(C(F)(F)F)nc(SCC(=O)N(C)c3ccccc3)n2)cc1OC`, “basal activity increase” read roughly 20% (NG108-15; agonist, item: cAMP; 25 µM; baseline: basal).
`O=Cc1c(O)ccc2ccccc12` — result for “log2 fold change”: 3.23 (HUVEC; RNA sequencing, item: ARRDC4; 75 µM, 24 h; baseline: DMSO).
Under “senescence-associated β-galactosidase staining”, `Cc1ccc(NC(=O)c2c(C)oc3ccc(O)c(CN4CCCCCC4)c23)cc1` is recorded as “increased” (L-363; 10 µM, 72 h).
The onset concentration of `CN[C@@H](C)C(=O)N[C@H]1CN(C(=O)Cc2ccccc2)CC[C@H]2CC[C@@H](C(=O)NCc3ccc(Br)cc3)N2C1=O` is reported as greater than 30 nM (SK-OV-3; cIAP1 degradation, western blot, item: cIAP1; 24 h).
For `CN(C)c1cc2ccccc2c(N)n1`, “ACTA2 mRNA level” read “decreased” (LX-2; qPCR; concentration not given, 6 h pre-treatment, with: TGF-β1 5 ng/mL for 12 h).
`FC(F)(F)c1ccnc(-c2cc(C(F)(F)F)ccn2)c1.FC(F)(F)c1ccnc(-c2cc(C(F)(F)F)ccn2)c1.[Cl-].[Cl-].[Ru+2].c1csc(-c2ccc(-c3ccc(-c4nc5c6cccnc6c6ncccc6c5[nH]4)s3)s2)c1`: “mean phototherapeutic index” 1400 (SK-MEL-28; cell viability; normoxia, with: visible light; baseline: dark EC50 over light EC50).
The selectivity index of `CO[C@@H]1[C@@H](O[C@@H]2O[C@H](C)[C@@H](O[C@H]3C[C@@](C)(O)[C@@H](OC(=O)C4CCCCC4)[C@H](C)O3)[C@H](N(C)C)[C@H]2O)[C@@H](CC=O)C[C@@H](C)[C@@H](O[C@H]2CC[C@H](N(C)C)[C@@H](C)O2)/C=C/C=C/C[C@@H](C)OC(=O)C[C@H]1O` is reported as 3.4 (GES-1 and HGC-27; cell growth, CCK-8; 72 h; baseline: IC50 GES-1 over HGC-27).
For `O=C(NCC1(c2nc(-c3ccccc3)cs2)CCOCC1)c1cccc(-c2noc(C(F)(F)F)n2)c1`, “significantly changed genes” read 240 genes (DHL6; RNA sequencing; 3 µM, 12 h).
With `C=C(CC)C(=O)c1ccc(OCC(=O)NCCCCNC(=O)COc2ccc(C(=O)C(=C)CC)c(Cl)c2Cl)c(Cl)c1Cl` the IC10 was roughly 0.2 µM (HEK293; cell growth, CCK-8; 72 h).
`CCCCCC(C)(O)/C=C/C=C\C=C\C=C\[C@@H](O)[C@@H](O)CCCC(=O)OC` (mixture of isomers) has an inhibition of roughly 78% (human neutrophils; chemotaxis, antagonist; 10 nM, 30 min, 37 °C, with: MMK-1 1 nM).
For `CCC/C(=C\C1=C(C(F)(F)F)C(=O)c2ccccc2C1=O)C(=O)N(CC)CC`, the EC50 was 5.7 ± 0.6 µM (NF90-8 cells; HIF1α reporter gene, luciferase reporter; 24 h, 1% oxygen hypoxia).
With `COc1cc(CNC(=O)C[C@H](C)CCC=C(C)C)ccc1OCc1cn(-c2cccc(C(F)(F)F)c2)nn1` the growth percent was 56.8% (MCF7 breast cancer cells; SRB; 10 µM, 48 h).
With `CC1(C)C2CC[C@]3(C)[C@H](C(=O)C=C4[C@@H]5C[C@@](C)(C(=O)N6CCN(C(=O)Cc7ccc(Cl)cc7)CC6)CC[C@]5(C)CC[C@]43C)[C@@]2(C)CC[C@@H]1OC(=O)Cc1ccc(Cl)cc1` (stereo partly shown) the inhibition was 0% (KARPAS-299; cell growth or viability, MTT; 20 µg/mL).
The GI50 of `COC(C(=NOCC(=O)NCc1ccccc1)C(O)C(C)O)C1Cc2cc3cc(OC4CC(OC5CC(O)C(O)C(C)O5)C(O)C(C)O4)c(C)c(O)c3c(O)c2C(=O)C1OC1CC(OC2CC(OC3CC(C)(O)C(O)C(C)O3)C(O)C(C)O2)C(O)C(C)O1` (stereo not shown) is reported as 0.292 µM (PC-3; cell growth or viability; 72 h).
For `CCN(CC)CC(=O)Nc1cccc(-n2cc(-c3ccc4ccc(-c5cn(-c6cccc(NC(=O)CN(CC)CC)c6)nn5)cc4c3)nn2)c1`, the mRNA level was 27.3% (RCC4; qRT-PCR, item: HIF-1α; 10 x IC50; baseline: untreated).
The growth percent of `COc1cc(CNC(=O)C[C@H](C)CCC=C(C)C)ccc1OCc1cn(-c2cccc(Cl)c2)nn1` is reported as 47.7% (MOLT-4 leukaemia cells; SRB; 10 µM, 48 h).
The decrease of `CCCc1nc2cc(C(=O)N3CCC4(CC3)CC(=O)c3cc5c(cc3O4)OC(C)(C)CC5)cc(C)c2[nH]1` is reported as 25% (AML12; item: malonyl-CoA; 1 µM, 24 h; baseline: untreated).
For `CCC(=C(c1ccc(Cl)cc1)c1ccc(OCCCN(C)C)cc1)c1ccc(OC)cc1`, the GI50 was 3.88 µM (A549/ATCC; NCI five-dose screen; non-small-cell lung cancer).
With `CC(C)c1cccc(C(C)C)c1-n1c(Cl)c(Cl)n(-c2c(C(C)C)cccc2C(C)C)c1=[Se].[Cl][Au]` the resistance factor was 1.1 (LoVo MDR; MTT; baseline: LoVo MDR over LoVo).
`COc1cc(CNC(=O)C[C@H](C)CCC=C(C)C)ccc1OCc1cn(-c2ccc(Br)cc2)nn1` gave a growth of 80.6% (MDA-MB-231/ATCC; SRB; 10 µM, 48 h).
`COc1ccc([C@@H]2CC(=O)c3c(O)cc(O[C@@H]4O[C@H](CO[C@@H]5O[C@@H](C)[C@H](O)[C@@H](O)[C@H]5O)[C@@H](O[C@H]5O[C@H](CO)[C@@H](O)[C@H](O)[C@H]5O)[C@H](O)[C@H]4O)cc3O2)cc1O` has a gap closure of 4.24 ± 0.78% (A549; cell migration, scratch; 100 µg/mL, 24 h).
The tail DNA of `Cc1nn(-c2ccc(S(=O)(=O)N[C@@H](CO)CC(C)C)cc2)c2nn3nnnc3nc12` is reported as 28.4 ± 4.77% (HT-29; DNA damage, alkaline comet; 1 µM, 24 h).
Under “cells in phase”, `Cc1ccc(C(C)C)cc1.[Cl-].[Cl][Ru+].[Ru+].c1ccc(-c2cn(CCCCOc3ccccc3-c3nc4ccccc4s3)nn2)nc1` is recorded as 0.16% (MCF7; PI flow cytometry, item: sub-G0 phase; 4 µM, 24 h).
The resistance factor of `CC(C)c1cccc(C(C)C)c1-n1ccn(-c2c(C(C)C)cccc2C(C)C)c1=[Se].[Cl][Ag]` is reported as 1.7 (LoVo MDR; MTT; baseline: LoVo MDR over LoVo).
The TGI of `CC/C=C\C/C=C\C/C=C\C/C=C\C/C=C\C/C=C\CCC(=O)Nc1ccn(C2OC(CO)C(O)C2(F)F)c(=O)n1` (stereo not shown) is reported as 28.8 µM (SR; NCI60 screen).
`COc1cc(CNC(=O)C[C@H](C)CCC=C(C)C)ccc1OCc1cn(-c2ccc(Cl)c(Cl)c2)nn1` gave a growth of 75.7% (MDA-MB-231/ATCC; SRB; 10 µM, 48 h).
`O=S(=O)(CCC(F)(F)F)Nc1ccc(Oc2ncccc2-c2ccnc(N[C@H]3CCCNC3)n2)c2ccccc12`: “secretome transcript level” “inhibited” (INS1 cells with Dox-inducible IRE1α; IRE1α-induced decrease, RNA-Seq; 20 µM, with: 5 ng/mL doxycycline).
For `COc1ccc(CC2COC(=O)C2Cc2ccc3c(c2)OCO3)cc1OC` (mixture of isomers), live cells read “decreased” (A2780cis; annexin V/7-AAD; 3.25 µM, 72 h; baseline: untreated).
`COc1ccc(/C=C/C2=[N+]3C(=C(C=O)c4c(C)c(Br)c(/C=C/c5ccc(OC)cc5)n4[B-]3(F)F)C(C)=C2Br)cc1` has a phototoxicity index of 45 ± 2 (RPE-1; resazurin; with: 645 nm light; baseline: dark over light IC50).
`CC(=O)NC1C(O)OC(CO)C(O)C1OC(C)C(=O)NC(C)C(=O)NC(CCC(=O)O)C(N)=O` (stereo not shown): IL-1β secretion “increased” (human PBMCs; 10 µM, 24 h, with or without LPS).
For `CC(Cc1ccc(Cl)cc1)=C(c1ccc(Cl)cc1)c1ccc(OCCN(C)C)cc1`, the GI50 was 4.55 µM (786-0; cell growth or viability).
`CCOC(=O)c1c(-c2ccc(C)cc2)oc2nc(N3CC[C@H](F)C3)ccc12` gave an EC50 of greater than 50 µM (CRL8155; cell growth or viability; 48 h).
